Measurements collected from several papers.
Lines come from different studies, so protocols differ. Numbers after ± are the reported error.

O=C1NCC(Cc2ccccc2)N(CC2CCCN2CC(CC2CCCCC2)N2CC(Cc3ccc(O)cc3)N(CCc3ccccc3)C(=O)C2=O)C1=O (stereo not drawn)  IC50 (U87; viability; 72 h): > 100 µM
Cc1c(C)c(C)[c-](C)c1C.Cc1ccc[c-]c1-c1ccccn1.[Cl-].[Ir+3]  IC50 (A2780 cells; cell growth, SRB; 24 h exposure, 72 h recovery): 1.18 ± 0.08 µM
C=CC(OC(C)=O)c1ccccc1 (stereo not drawn)  IC50 (EJ-28; MTT; 24 h): > 50 µM
[Fe+2].c1ccc(P(=NCc2ccccn2)(c2ccccc2)[c-]2cccc2)cc1.c1ccc(P(=NCc2ccccn2)(c2ccccc2)[c-]2cccc2)cc1  IC50 (A2780cisR (cisplatin-resistant); cell growth, MTT; 74 h, 1% DMSO): 13.1 ± 4 µM
CNC(=O)C1CCN(c2cc(C)c(F)cc2NC(=O)c2ccc(-c3cc(O)ccc3C)c(C)c2)CC1  IC50 (12Z; cell growth or viability, ATP luminescence; 72 h): 2.83 µM
C(=C/c1ccccc1)/c1ccccc1  IC50 (MOLT-3; cell growth or viability, ATP luminescence; 24 h): 25 µM
CC(=O)[O-].O.O.[O-]c1ccc(Br)cc1C=NCCN1CCOCC1.[Zn+2]  IC50 (NHDF normal fibroblasts; cell viability, MTT; 72 h): 66.5 µg/mL
CCCCCCCCCCCCCCCCCC(=O)N[C@@H](CCCCN)C(=O)N[C@@H](CCCCN)C(=O)N[C@@H](CCCCN)C(=O)N[C@@H](CCCCN)C(=O)N[C@@H](CCCCN)C(N)=O  IC50 (HCEC; cytotoxicity): 28.3 µg/mL
C=CCc1ccc(O)c(-c2cc(CC=C)ccc2O)c1  IC50 (UACC-62; cell growth, IncuCyte confluence): 64 µM
CCn1cc[n+](CC)[c]1[Au-][Cl]  IC50 (RC-124 kidney epithelial; cell proliferation, crystal violet staining; 96 h): 6.1 ± 2.6 µM
COc1ccc(/C=C/C2=[N+]3C(=C(C=O)c4c(C)c(Br)c(/C=C/c5ccc(OC)cc5)n4[B-]3(F)F)C(C)=C2Br)cc1  IC50 (RPE-1; cell growth or viability, resazurin; dark): > 100 µM
CC1(C)CCC(CN2CCN(c3ccc(C(=O)NS(=O)(=O)c4ccc(NCC5COCCO5)c([N+](=O)[O-])c4)c(N4CCCOc5nc6[nH]ccc6cc54)c3)CC2)=C(c2ccc(Cl)cc2)C1 (stereo not drawn)  IC50 (OSU-CLL BCL2 knockout; cell viability, CellTiter-Glo; 72 h): 0.0295 µM
[Cl][Pd-]1([Cl])[S]C(Nc2ccccc2)=N[N+]1=Cc1ccc(-c2ccccc2)s1  IC50 (CRFK; cell growth or viability): > 100 µM
CCN(CC)CCN1C(=O)c2ccc3c4cccc5c(NCCN)ccc(c6ccc(c2c36)C1=O)c54  IC50 (human PBMC; cell growth or viability, SRB; 72 h): 235 µM
CCn1nc(Cl)c2c1-c1cnc(N)c(c1)O[C@H](C)c1cc(F)ccc1-c1nn(C)cc1C2  IC50 (ALK-driven cell lines; cell viability; range over lines): 0.002 to 0.019 µM
C=CC(=O)Nc1ccc(-c2c(-c3ccc(OC)cc3)c3c(N)ncnc3n2C)cc1  IC50 (SNU-16; cell growth or viability, ATP luminescence; 96 h): 0.022 µM
Cc1cc(C=O)cc(C)c1Oc1cc(Nc2ccc(C#N)cn2)nc2cnccc12  IC50 (MOLT-3; 48 h): 14.9 ± 5.6 µM
C=C1C(=O)OC2CC3=C[C@@H](C/C(C)=C/C(OC(=O)Cc4cccc5ccccc45)[C@H]12)OC3=O (stereo partly drawn)  IC50 (PC-6; cell growth or viability, MTT; 24 h): 0.34 µM
CC(C)(C)OC(=O)C(NCc1ccc(CCC(=O)NO)nc1)C1CCCCC1 (stereo not drawn)  IC50 (human CD14+ monocytes; M-CSF differentiation; 4 h then washout, together with: M-CSF): > 10 µM
Cc1cc(NC(=O)c2cccc(NC(=O)/C(C#N)=C/C(C)(C)C)c2)ccc1Nc1nccc(-c2cccnc2)n1  IC50 (SH-SY5Y MKK7-ACT; c-Jun phosphorylation, inhibitor, HTRF, refers to: phospho-c-Jun Ser63; 6 h, together with: doxycycline): 4.97 ± 0.62 µM
CC(=O)Oc1ccccc1C(=O)[O][Pt]([NH2])([NH2])([Cl])([Cl])[O]C(=O)CCCc1ccccc1  IC50 (C13 cisplatin-resistant; cytotoxicity, MTT; 72 h): 0.43 ± 0.12 µM
